Assay results collected from several papers.
Numbers after ± are the reported error.
Cell line: MOLT-4

SMILES | read-out | method | tested at | time | added | measurement | result
CC(=O)c1cccc(NC2C(N)C(NC(=O)N(C)C)(C(C)O)C(O)C2(O)COC(=O)c2c(C)cccc2O)c1 (stereo not drawn) | cell growth or viability | SRB | – | – | – | GI50 | 46 nM
CCCCCCCCC=CCCCCCCCC(=O)OCC1OC(n2ccc(N)nc2=O)C(F)(F)C1O (stereo not drawn) | cell growth | – | – | – | NBMPR 100 µM | IC50 | 51 ± 33 nM
Cc1sc2c(c1C)C(c1ccc(Cl)cc1)=N[C@@H](CC(=O)NCCCCCCCCC(=O)N1CCN(C(=O)c3cc(Cc4n[nH]c(=O)c5ccccc45)ccc3F)CC1)c1nnc(C)n1-2 | cell growth or viability | ATP luminescence | – | 72 h | – | IC50 | 131 nM
CC1(C)CCC(CN2CCN(c3ccc(C(=O)NS(=O)(=O)c4ccc(NCC5COCCO5)c([N+](=O)[O-])c4)c(N4CCCOc5nc6[nH]ccc6cc54)c3)CC2)=C(c2ccc(Cl)cc2)C1 (stereo not drawn) | cell growth or viability | ATP luminescence | – | 24 h | – | IC50 | 627 nM
COc1ccc(C2=Nn3c(NN=C4C(=O)N(Cc5ccccc5)c5ccc(Cl)cc54)nnc3SC2)cc1 | cell growth or viability | SRB | 10 µM | – | – | inhibition | 30%
CC(=C(c1ccc(O)cc1)c1ccc(Cl)cc1)c1ccc(Cl)cc1 | cell growth or viability | – | – | – | – | GI50 | 650 nM
CN(C)CC#Cc1ccc(OCCCc2sc(N3CCc4cccc(C(=O)Nc5nc6ccccc6s5)c4C3)nc2C(=O)O)c(F)c1 | cell growth or viability | ATP luminescence | – | 48 h | – | EC50 | 130 nM
COc1ccc2c(c1)/C(=N\Nc1nnc3n1N=C(c1ccccc1)CS3)C(=O)N2 | cell growth or viability | SRB | 10 µM | – | – | inhibition | 51%
Cc1sc2c(c1C)C(c1ccc(Cl)cc1)=N[C@@H](CC(=O)NCC(=O)N1CCC3(CCC(C(=O)N4CCN(C(=O)c5cc(Cc6n[nH]c(=O)c7ccccc67)ccc5F)CC4)CC3)CC1)c1nnc(C)n1-2 | cell growth or viability | ATP luminescence | – | 72 h | – | IC50 | 4.6 nM
CC1(C)CCC(c2ccc(Cl)cc2)=C(CN2CCN(c3ccc(C(=O)NS(=O)(=O)c4ccc(N[C@H](CCN(CCOCCOCCOCCNc5cccc6c5C(=O)N(C5CCC(=O)NC5=O)C6=O)C5CCCC5)CSc5ccccc5)c(S(=O)(=O)C(F)(F)F)c4)cc3)CC2)C1 (stereo partly drawn) | cell growth or viability | MTS | – | 48 h | – | IC50 | 560 nM
CC(=O)OC[C@H]1O[C@@H](Sc2sc(C(=O)c3ccc(C)cc3)c(N)c2-c2nc3ccccc3s2)[C@H](OC(C)=O)[C@@H](OC(C)=O)[C@@H]1OC(C)=O | – | SRB | 10 µM | 48 h | – | growth | 80%
CC/C=C\C/C=C\C/C=C\C/C=C\C/C=C\C/C=C\CCC(=O)Nc1ccn(C2OC(CO)C(O)C2(F)F)c(=O)n1 (stereo not drawn) | – | NCI60 screen | – | – | – | TGI | 13300 nM

Repeated from above:
SMILES | read-out | method | tested at | time | added | measurement | result
CC(=C(c1ccc(O)cc1)c1ccc(Cl)cc1)c1ccc(Cl)cc1 | cell growth or viability | – | – | – | – | GI50 | 650 nM
